# Published values pooled from the literature.
# “And” joins repeats or separate records; there may be more than shown. ± marks the error that the study gave.
Compound,assay,system,setting,how to read,measurement,result
COc1cc(Nc2ncc3c(n2)-c2ccc(Cl)cc2C(c2c(F)cccc2OC)=NC3)ccc1C(=O)O,"refers to: oral mucositis, grade 3","cancer patients, phase 1/2","dose not given, together with: pembrolizumab",,patients with adverse event,4%
CNC(=O)c1ccc(-c2cnc3ncc(Cc4ccc5ncccc5c4)n3n2)cc1F,"refers to: Anemia, all grades",cancer patients,"oral, 600 mg twice daily, other expansion cohort, any causality",,patients with adverse event,11%
CCc1cc(C(=O)NC)c2nccc(N3CCc4c(cc(Cn5ccnc5)cc4-c4cn(C)nc4C(F)(F)F)C3=O)c2c1,,Sprague Dawley rats,"oral, 100 mg/kg twice daily, 7 days",,serum LDL level,0.6 ± 0.12 mmol/L
NC1(C(=O)N[C@@H](CCO)c2ccc(Cl)cc2)CCN(c2nc[nH]c3nccc2-3)CC1,,metastatic CRPC patients,"480 mg b.i.d., grade 3 to 4, treatment-related, together with: enzalutamide 160 mg daily",,incidence of Erythema,0%
CCCCc1oc2ccccc2c1C(=O)c1cc(I)c(OCCN(CC)CC)c(I)c1,,"male Hartley guinea pigs, anaesthetized","intravenous, 5 mg/kg group, baseline before infusion",,heart rate,223 ± 0.2 beats/min
COc1ccc(C(=O)O)c(O)c1,,human CSF,"concentration not given, mean",,CSF concentration,not detected
Cc1noc(C)c1-c1cc(C(O)(c2ccccn2)c2ccccn2)c2nc(C3CC3)[nH]c2c1,,"human patients, plasma","oral, 2 mg, cycle 1 day 8, monotherapy",,AUC(0-tau),1590 ng·h/mL
CC(=O)N(C)[C@H]1CCN(C(=O)c2cnc3c(c2)C[C@](C)(c2ccc(F)cc2)N3)C1,refers to: Lightheadedness,human,"oral, 30 mg once daily",,adverse event duration,13 days
COc1ccc(CNc2nc(-c3ccc(C(=O)O)cc3)nc3c2c2ccccc2n3C)cc1Cl,,NSG mice,"dose not given, day 1 of treatment",,body weight,20.7 g and 21.4 g and 23.5 g and 22.6 g
CNC(=O)c1cc(Oc2ccc(NC(=O)Nc3cc(C(C)(C)C)nn3-c3ccc4ncccc4c3)c(F)c2)ccn1,,patients,"oral, dose not given, cycles 1 and 2, Medium AUC subgroup",,patients with musculoskeletal disorders,50%
CCc1c(-c2ccccc2)c(-c2ccccc2)nn1-c1ccccc1-c1cccc(OCC(=O)O)c1,,Sprague-Dawley rat,"intravenous, dose not given",,AUMC(0-inf) observed,1730 h²·ng/mL and 2350 h²·ng/mL and 3460 h²·ng/mL
O=C(NCc1ccc(CN2CCOCC2)cc1)c1csc2nc[nH]c(=O)c12,haemolysis,human red blood cells,"1 h, 37 °C",,EC50,> 100 µM
CCn1c(=O)c(-c2cc(NC(=O)Nc3ccccc3)c(F)cc2Br)cc2cnc(NC)cc21,refers to: investigations,"healthy human, matched to severe hepatic impairment","oral, 50 mg single dose",,participants with grade ≥ 3 TEAE,0%
C=CC(=O)Nc1cc(Nc2nccc(-c3cn(C)c4ccccc34)n2)c(OC)cc1N(C)CCN(C)C,storage stability,human plasma,"72 h, -80 °C, high QC level",,recovery,92.1%
CC(C)(C(=O)N1CCOc2c(C#N)cncc2C1)C(F)F,refers to: abdominal pain,human,"oral, 20 mg twice daily, 14 days, multiple ascending dose",,subjects with adverse event,0%
O=C(/C=C/CCc1ccc(O)cc1)/C=C/c1ccc(O)cc1,,nude mouse MCF7 xenograft,"20 mg/kg, day 4",,body weight,20.4 ± 1.1 g
C[C@@H](Oc1ccc(S(C)(=O)=O)cc1C(=O)N1C[C@@H]2C[C@]2(c2cc(C(F)(F)F)on2)C1)C(F)(F)F,,human,"oral, 25 mg",,incidence of Myalgia,16.7%
Cc1c(-c2ccc(N3CCc4cccc(C(=O)Nc5nc6ccccc6s5)c4C3)nc2C(=O)O)cnn1CC12CC3(C)CC(C)(C1)CC(OCCNCC[C@H](O)CO)(C3)C2,,anaesthetized male beagle dog,"iv infusion, 0.1 mg/kg/min, 120 min",,plasma concentration,< 4 ng/mL
CCN1/C(=C/C(C)=O)Sc2ccc(F)cc21,,cynomolgus monkey,"oral, 10 mg/kg, 0.5 h post-dose",,PR interval,90 ± 4 ms
CNc1ccc(-c2nc3ccc(O)cc3s2)cc1 [carbon-11 labelled],ex vivo biodistribution,"APP/PS1 mouse, AD model, blood","intravenous, 30 min",,SUV,0.516 ± 0.296
OC[C@H]1O[C@@H](c2ccc(F)c(Cc3cc4ccccc4s3)c2)[C@H](O)[C@@H](O)[C@@H]1O,,"Japanese patients, type 1 diabetes","oral, 50 mg/day, onset day 6",reference: patients,hypoglycaemia-related adverse event,6%
O=C(Nc1nc2cccc(-c3ccc(CN4CCS(=O)(=O)CC4)cc3)n2n1)C1CC1,refers to: pharyngitis,human rheumatoid arthritis patients,"oral, 300 mg once daily, 4 weeks, regardless of relatedness",,treatment-emergent adverse events,0%
C[C@@H](N)C1CCN(S(=O)(=O)c2cccc3cnccc23)CC1,,healthy volunteers,"75 mg, fasted",,participants with TEAEs,33.3%
COc1cc2nccc(Oc3ccc(NC(=O)c4cc5c(n(-c6ccccc6)c4=O)CCCC5=O)nc3)c2cc1OC,,"human, relapsed/refractory AML","oral, 3 mg once daily, grade ≥3, any causality",,patients with Klebsiella bacteraemia,20%
COc1ccc([C@@H](O)c2cc(-c3ncnc4cc(N5CCOCC5)ccc34)c(F)cc2Cl)nn1,,locally advanced rectal cancer patients,"100 mg, together with: capecitabine and radiotherapy",,drug-related nausea incidence,33%
Cc1ccc([C@@H]2O[C@H](CO)[C@@H](O)[C@H](O)[C@H]2O)cc1Cc1ccc(-c2ccc(F)cc2)s1,refers to: inorganic phosphorus,Japanese type 2 diabetes patients,"400 mg, day 6, 24 h urine collection",reference: baseline,urinary phosphate excretion change,140 mg
CC(C)NCC(O)COc1cccc2ccccc12 (stereo not shown),,"male Hartley guinea pigs, anaesthetized","intravenous, 0.3 mg/kg group, baseline before infusion",,heart rate,222 ± 0.4 beats/min
C[C@H]1O[C@@H](O[C@H]2CC[C@@]3(C)[C@@H](CC[C@]4(C)[C@@H]3C=C[C@]35OC[C@@]6(CCC(C)(C)C[C@H]63)[C@@H](O)C[C@]54C)[C@]2(C)CO)[C@H](O)[C@@H](O[C@@H]2O[C@H](CO)[C@@H](O)[C@H](O)[C@H]2O)[C@H]1O,UHPLC-MS/MS,"mouse, plasma","oral, 50 mg/kg, 10 h",,plasma concentration,0 ng/mL
C=CCn1c(=O)c2cnc(Nc3ccc(N4CCN(C)CC4)cc3)nc2n1-c1cccc(C(C)(C)O)n1,,human,"oral, 250 mg once daily, cycle 1 day 17, together with: durvalumab 1500 mg IV",median,Tmax,2 h
C=CC(=O)N1CCC(c2ccc(C(N)=O)c(-c3ccc(Oc4ccccc4)cc3)n2)CC1,,relapsed/refractory mantle cell lymphoma patients,"oral, dose not given, part, all doses, CTCAE v4.03",,treatment-related AE rate,40.6%
CC(C)n1c(Nc2cccnc2)nc2cnc(Nc3ccc(N4CCN(C)CC4)cc3)nc21,refers to: sinus bradycardia,healthy male subjects,"oral, 100 mg, study, together with: gemfibrozil",,subjects with adverse event,0%
Cc1ccc(Sc2ccccc2N2CCNCC2)c(C)c1,refers to: Thirst,healthy adult men,"oral, 10 mg single dose",,participants with TEAE,0%
O=C(O)c1ccc(O)c(O[C@@H]2O[C@H](C(=O)O)[C@@H](O)[C@H](O)[C@H]2O)c1,,human CSF,"concentration not given, mean",,CSF concentration,not detected
COc1ccc2nc([S@@+]([O-])Cc3ncc(CO)c(OC)c3C)[nH]c2c1,,"human, dried plasma spots",5 mg racemic omeprazole,reference: baseline,AUC(0-8 h),0.0174 µM·h
O=C(O)CNC(=O)c1ccccc1,,human CSF,"concentration not given, mean",,CSF concentration,not detected
O=C(O)CCC(=O)O.[2H]C([2H])([2H])Oc1cc(C)c2[nH]ccc2c1CN1CC[C@@H](C2CC2)C[C@H]1c1ccc(C(=O)O)cc1,,"human, plasma","200 mg once daily, day 10, multiple ascending dose, geometric mean",,AUC(0-tau),67000 ng·h/mL
CCOc1c([C@H](C)n2nc(C)c3c(N)ncnc32)cc(Cl)c(F)c1[C@@H]1CNC(=O)C1,,"patients with B-cell malignancies, plasma","oral, 30 mg, day 1, monotherapy",,Tmax,1 h
CC(C)C[C@H](NC(=O)[C@H](Cc1ccccc1)NC(=O)c1cnccn1)B(O)O,,"mouse xenograft, heart",dose not given,,organ weight,112 mg
COc1ccc(CCNCCCC(C#N)(c2ccc(OC)c(OC)c2)C(C)C)cc1OC (stereo not shown),equilibrium dialysis,human liver microsomes,"2 µM, 20 h, pH 7.4, 37 °C, 0.5 mg/mL scaled to 1 mg/mL",,"fu,mic",0.71
C[C@H]1O[C@@H](O[C@H]2[C@@H](O)C[C@H](O[C@H]3[C@@H](O)C[C@H](O[C@H]4CC[C@@]5(C)[C@H](CC[C@@H]6[C@@H]5C[C@@H](O)[C@]5(C)[C@@H](C7=CC(=O)OC7)CC[C@]65O)C4)O[C@@H]3C)O[C@@H]2C)C[C@H](O)[C@@H]1O,refers to: toothache,healthy men,"oral, dose not given, 8 days, treatment-emergent, crossover trial",,subjects with adverse event,0%
O=Cc1ccc(O)c(O)c1,,human CSF,"concentration not given, mean",,CSF concentration,not detected
CN(C(=O)n1cnc(-c2cccnc2)c1)C1CCCCC1,,"Wistar rat, medulla oblongata","oral, 10 mg/kg, 4 h, single dose",,tissue concentration,32.7 ± 6.6 ng/g
COc1ncc(-c2nc3c(n2C(C)C)[C@H](c2ccc(Cl)cc2)N(c2cc(Cl)cn(C)c2=O)C3=O)c(OC)n1,LC-MS/MS,"human, plasma","oral, 50 mg, cycle 1 day 1, high-dose arm",,Cmax,467 ng/mL
NCc1ccc(-c2nn(Cc3ccccc3)c3ccccc23)o1,,"male CD1 mouse, plasma","intravenous, 5 mg/kg",,volume of distribution at steady state,4.01 L/kg
CC(C)(C)c1ccc(C(O)CCCN2CCC(C(O)(c3ccccc3)c3ccccc3)CC2)cc1 (stereo not shown),,"male Hartley guinea pigs, anaesthetized","intravenous, 1 mg/kg over 10 min, after infusion",,heart rate,189 ± 0.3 beats/min
CCCCCCC#Cc1cncc(-c2nnc(SCc3ccc([N+](=O)[O-])cc3)n2C)c1,,African green monkey cells,72 h,,CC50,27 ± 5.43 µM
N=C(N)NC(=N)NCCCCCCCCCC[P+](c1ccc(C(F)(F)F)cc1)(c1ccc(C(F)(F)F)cc1)c1ccc(C(F)(F)F)cc1.[Br-],19F NMR,"tumour-engrafted mice, blood and liver","intratumoral, 1 mg, 2 h",,detection,not detected
N#Cc1ccc2c(c1)[C@H]1CCCN(C(=O)c3ccc4[nH]cnc4c3)[C@H]1C2,,human females,"10 mg, day 15",,total testosterone level,0.9 nmol/L
CO[C@H]1/C=C/O[C@@]2(C)Oc3c(C)c(O)c4c(c3C2=O)C2=NC3(CCN(CC(C)C)CC3)NC2=C(NC(=O)/C(C)=C/C=C/[C@H](C)[C@H](O)[C@@H](C)[C@@H](O)[C@@H](C)[C@H](OC(=O)Nc2c(C)nc3ccccn23)[C@@H]1C)C4=O,,CD-1 mouse,dose not given,,volume of distribution,4.6 L/kg
O=C1NCCc2nc(OCc3cccc(F)c3)ccc21,modified Irwin test,"Sprague-Dawley rat, male","oral, 100 mg/kg, 1 h",higher = stronger effect,rigid stance score,0
COc1c(N2C[C@@H]3CCCN[C@@H]3C2)c(F)cc2c(=O)c(C(=O)O)cn(C3CC3)c12,,"male Hartley guinea pigs, anaesthetized","intravenous, 1 mg/kg group, baseline before infusion",,heart rate,242 ± 1 beats/min
C=CC(=O)N(C)CCOc1c(N)ncnc1-c1cc(F)cc(NC(=O)c2ccc(C3CC3)cc2F)c1C,,human,"oral, 15 mg single dose",,Cmax,24.8 ng/mL
CCCC(CCC)C(=O)Oc1cccc(C(O)CCN)c1.O=CO (stereo not shown),,"Abca4-/-Rdh8-/- mice, photic damage","intraperitoneal, 10 mg/kg, 7 days, flash intensity 1",,photopic S-cone ERG b-wave,22.1 µV and 13 µV and 20.6 µV and 17.3 µV and 14.2 µV and 19.2 µV and 12.6 µV and 15.1 µV
N#Cc1ccc2c(c1)[C@H]1CCCN(C(=O)c3ccc4[nH]cnc4c3)[C@H]1C2,,"human, plasma","oral, 80 mg once daily, steady state",,AUC(tau) steady state,72 µM·h
FC(F)(F)c1ccc(CNc2ccc(Cc3c[nH]c4ncc(Cl)cc34)cn2)cn1,refers to: Diarrhea,"patients with advanced solid tumours, non-TGCT cohort","oral, 1000 mg/day, any grade",,treatment-related adverse events,17%

# A few entries again:
Compound,assay,system,setting,how to read,measurement,result
CC(C)(C)c1ccc(C(O)CCCN2CCC(C(O)(c3ccccc3)c3ccccc3)CC2)cc1 (stereo not shown),,"male Hartley guinea pigs, anaesthetized","intravenous, 1 mg/kg over 10 min, after infusion",,heart rate,189 ± 0.3 beats/min
CCCCCCC#Cc1cncc(-c2nnc(SCc3ccc([N+](=O)[O-])cc3)n2C)c1,,African green monkey cells,72 h,,CC50,27 ± 5.43 µM
N=C(N)NC(=N)NCCCCCCCCCC[P+](c1ccc(C(F)(F)F)cc1)(c1ccc(C(F)(F)F)cc1)c1ccc(C(F)(F)F)cc1.[Br-],19F NMR,"tumour-engrafted mice, blood and liver","intratumoral, 1 mg, 2 h",,detection,not detected
N#Cc1ccc2c(c1)[C@H]1CCCN(C(=O)c3ccc4[nH]cnc4c3)[C@H]1C2,,human females,"10 mg, day 15",,total testosterone level,0.9 nmol/L
CO[C@H]1/C=C/O[C@@]2(C)Oc3c(C)c(O)c4c(c3C2=O)C2=NC3(CCN(CC(C)C)CC3)NC2=C(NC(=O)/C(C)=C/C=C/[C@H](C)[C@H](O)[C@@H](C)[C@@H](O)[C@@H](C)[C@H](OC(=O)Nc2c(C)nc3ccccn23)[C@@H]1C)C4=O,,CD-1 mouse,dose not given,,volume of distribution,4.6 L/kg
O=C1NCCc2nc(OCc3cccc(F)c3)ccc21,modified Irwin test,"Sprague-Dawley rat, male","oral, 100 mg/kg, 1 h",higher = stronger effect,rigid stance score,0
COc1c(N2C[C@@H]3CCCN[C@@H]3C2)c(F)cc2c(=O)c(C(=O)O)cn(C3CC3)c12,,"male Hartley guinea pigs, anaesthetized","intravenous, 1 mg/kg group, baseline before infusion",,heart rate,242 ± 1 beats/min
C=CC(=O)N(C)CCOc1c(N)ncnc1-c1cc(F)cc(NC(=O)c2ccc(C3CC3)cc2F)c1C,,human,"oral, 15 mg single dose",,Cmax,24.8 ng/mL
CCCC(CCC)C(=O)Oc1cccc(C(O)CCN)c1.O=CO (stereo not shown),,"Abca4-/-Rdh8-/- mice, photic damage","intraperitoneal, 10 mg/kg, 7 days, flash intensity 1",,photopic S-cone ERG b-wave,22.1 µV and 13 µV and 20.6 µV and 17.3 µV and 14.2 µV and 19.2 µV and 12.6 µV and 15.1 µV
